# Assay results of several laboratories.
# Every numbered part comes from another study and shows a few of its results, in no order.

# Block 1
# Target: Histone acetyltransferase KAT6A, winged helix 2, GST fusion (KAT6A, Homo sapiens, UniProt Q92794, residues 85-181)
# Technique: protein binding microarray
# Molecule type: double-stranded DNA, one strand shown
# Medium: in vitro
# Tested at: not given
# Notes: 8-mer, flanks averaged, mean of 2 arrays, mostly near background
# Relative to: not given
# Reading: higher = stronger binding
# Construct (chain): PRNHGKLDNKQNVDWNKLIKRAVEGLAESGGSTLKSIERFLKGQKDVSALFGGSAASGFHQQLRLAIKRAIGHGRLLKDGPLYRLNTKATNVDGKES
Sequence,E-score
CGGGGGTA,-0.0194
CCTTCTTC,-0.149
CGCCAACG,0.108
AGGGGACA,-0.00284
AAGGACCC,-0.013
CGAGGACC,-0.0546

# Block 2
# Target: Sal-like protein 4, full length isoform B (SALL4, Homo sapiens, UniProt Q9UJQ4-2, residues 1-616)
# Technique: universal PBM
# Molecule type: double-stranded DNA, one strand shown
# Medium: in vitro
# Tested at: not given
# Notes: 8-mer, flanks averaged, mean of replicates
# Reading: higher = stronger binding
# Residues (chain): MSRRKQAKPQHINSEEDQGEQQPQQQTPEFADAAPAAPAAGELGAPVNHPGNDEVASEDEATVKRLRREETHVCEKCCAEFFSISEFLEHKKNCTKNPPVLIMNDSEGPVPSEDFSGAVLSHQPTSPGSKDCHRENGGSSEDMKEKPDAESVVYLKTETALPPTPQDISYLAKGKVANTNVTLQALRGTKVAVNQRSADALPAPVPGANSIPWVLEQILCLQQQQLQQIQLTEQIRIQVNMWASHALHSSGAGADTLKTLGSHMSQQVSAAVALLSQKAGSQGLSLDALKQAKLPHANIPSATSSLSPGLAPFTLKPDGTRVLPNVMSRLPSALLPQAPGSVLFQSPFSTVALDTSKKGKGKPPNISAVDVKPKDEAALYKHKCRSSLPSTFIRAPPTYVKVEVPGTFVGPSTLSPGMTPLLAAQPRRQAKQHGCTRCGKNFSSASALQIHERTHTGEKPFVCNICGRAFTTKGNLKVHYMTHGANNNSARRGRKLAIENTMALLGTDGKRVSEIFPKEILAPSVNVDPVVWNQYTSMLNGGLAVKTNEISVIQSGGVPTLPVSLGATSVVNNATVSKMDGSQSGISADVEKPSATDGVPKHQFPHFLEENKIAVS
Sequence,E-score
GCGGGGCA,-0.283
AAGCTGAG,0.0032
TACGAAAA,0.304
ATTTTCAC,0.171
CAACTCGC,-0.0449

# Block 3
# Target: Interferon regulatory factor 7, full length, phosphomimetic (IRF7, Homo sapiens, UniProt Q92985, residues 1-503, S471D/S472D/S475D/S476D/S477D/S483D/S484D/S487D)
# Technique: protein-binding microarray
# Molecule type: double-stranded DNA, one strand shown
# Medium: in vitro
# Tested at: 2200 nM top
# Notes: 60-bp whole probe
# With: salmon DNA 0.4 mg/ml
# Relative to: random background probes
# Reading: higher = stronger binding
# Constant ends, left off below: GCCTAGCAC … GTCTTGATTCGCTTGACGCTGCTG
# Target sequence (chain): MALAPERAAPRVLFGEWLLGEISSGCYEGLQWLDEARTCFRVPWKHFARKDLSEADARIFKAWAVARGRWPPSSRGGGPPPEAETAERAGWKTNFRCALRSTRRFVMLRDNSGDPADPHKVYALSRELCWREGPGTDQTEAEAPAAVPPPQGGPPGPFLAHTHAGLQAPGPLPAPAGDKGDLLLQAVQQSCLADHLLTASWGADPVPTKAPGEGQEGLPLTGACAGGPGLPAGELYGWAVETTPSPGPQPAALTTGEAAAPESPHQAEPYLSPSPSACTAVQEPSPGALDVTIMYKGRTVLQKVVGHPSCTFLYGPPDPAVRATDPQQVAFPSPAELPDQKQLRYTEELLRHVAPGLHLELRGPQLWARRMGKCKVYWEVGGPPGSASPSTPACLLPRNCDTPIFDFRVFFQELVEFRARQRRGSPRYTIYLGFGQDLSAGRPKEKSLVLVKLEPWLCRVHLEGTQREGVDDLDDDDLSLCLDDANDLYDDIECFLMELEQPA
Sequence,fitted relative affinity
GGCGATATCAGTATCGAGACGTGCTAG,0.0779 z-score
TTAGGTATCGGGTAACGGTTAGTGCTA,0.279 z-score
GACCTTCACCTCTCTGTCCCCGTGCTA,1.45 z-score
GACGGTTTCGGGTGTCGGGACGTGCTA,5.08 z-score
TCAACACTAATTTTCATACTGTGCTAG,1.15 z-score
TCAGATTTATCAAATGTGACTGTGCTA,-0.219 z-score

# Other studies, line by line
Substance,target,assay,test system,setting,scale,quantity,result
"PhoQ, residues 284 288 289 292 302 303 WVSSAF","PhoP, residues 12 14 15 18 19 NFCKL (Escherichia coli, UniProt P23836)","Sort-seq, item: YFP reporter",E. coli,"PhoQ-PhoP variant library, with: 10 µM Mg2+","relative to: high Mg2+ state, higher = stronger signaling",fold induction,23.4

# Excerpt of the above (block 1):
Sequence,E-score
CGAGGACC,-0.0546
